Experimental data collected from several papers.
A part holds a random share of what one study measured.

Series 1
Target: RNA binding protein fox-1 homolog 2, RRM domain, GST-SBP tag (RBFOX2, Homo sapiens, UniProt O43251-10, residues 100-194)
Technique: RNA Bind-n-Seq
Form: RNA
Matrix: in vitro
Tested at: 365 nM
Setting: natural RNA segment, single round, ends assumed
Relative to: no-protein control
Reading: higher = stronger binding
Quantity: RBNS enrichment (R)
Shared flanks, not repeated: GGGAGUUCUACAGUCCGACGAUC … UGGAAUUCUCGGGUGCCAA
Construct (chain): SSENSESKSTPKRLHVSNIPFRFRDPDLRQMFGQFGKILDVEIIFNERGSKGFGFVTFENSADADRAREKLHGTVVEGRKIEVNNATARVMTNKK
AUAGUUAAAGUAGACACGGCCUCCCACGCGAGUGUGGUGGGACCUUGAGACUUAGGAGGAUUGCCUGUUUUCAGUGUCCAGGGAAUGACUCCAUAGAUUUGAAUUCUUUU: 1.11
CAAGUUUUGUAUAAAUAAUAAAGAACUCCUUAUUUUGUAUUACAUCUAAUGCUUCAAGUGUUGCUCUUGGAAAGCUGAUGAUGUCUCUUGUAGAAGAUGGACUCUGAAAA: 0.571
AUAAGACCCGAAACAACCUGCAAGAAACAGAACUGUUGAGUAUUGGUUGGACUGCUCAUGGAUUUGGUAGCUGUUUUAAAAAGGUAGCUGUGAUACAAGCCCCAGGACAC: 0.567
CCUGGUAUCCUGAGUUUUACAUGUAGAUGCAUUCGCCUAUUUGAUUCAGAAAAAUAAACUUUCCCAAAAUGUGUCUGAACCACAAGAGCAUACAGUGGAAGUGCUACCUC: 0.738
UGUUUAUCUUGUGCAGAUAAACACAAAGAGAAGGUGCUUGCUAGCAGGGACACUGCUGCCAUGUCCCAACAAGCUGUUCAGUUUAAACUGCUGAAUGACAUUAUUUGAGC: 0.293
CUUGAUUGUUUCCAUACCACUCAAGCCUUUGCUUGAAGAACAUGCUCAAUAAAUGUUUCAUGACUGCAGCAAAACCUGGCACCAGGAGUUCUUCAUAUAAAACUCGAUUU: 0.188
GUGCACACAAACCUUAACAAGACUGCAAAUACUCCAGAAGGAAGUCAUUUAGUUAUGAACGAAAUAAGAAAAGUGAGAACUUCAAAAGCUGUGGUCUUAAAUACUAGACC: 0.901
UACUUGUUUCCCACCCCAGGUUCCUCCAGGCCAAGUCAUGGGGUGAUGAGGAGUUGGGGCCCUGUCUGUCCUAGGCCUGGAGAGUGCCUGUCUGGGAAAAGGUCACUGGA: 0.632
UCCCCACCAAGUGGCCUCUUAGACUAGUCAUUAACUUAUGAUUAGCUCUAAAGAUUUCAAAUAGUGGCAGACAGUGUCUUCUGAAUGUAAGUUUUGAGAAAUACGAGUCU: 0.22
GCCUUUUGGAAAACAUCAACAGCUGUUUAGAAAUGCAGCUGUAGUCUAUGAUUUUCUCUCCAGACUCAUUGAAAAAGCUUCAGUCAACAGAAAGCCUCAGCUACCUCAGC: 0.361
CCAUGUCCUCAGACCCAGCAAAAGCGUAGAGGCAGAAUUAGAGGCCUCUCCAGGCCAGCUCCUCUGCCCACAUGUCAUACAAGGUGUGAAUUUGAGCACAGUCCAGAAAU: 0.242
CCCAGCUCAGAACCUAGGAAUCCCACAGCCCUAACCCCAGCCUUCAUACAGACUUUUAAUCCUCUACCACAUGCGAAUGCUGAACCCUCAGGAAGACCCACCUCUAUACC: 0.748

Series 2
Target: human cyclin B2
Effect on: peptide binding
Technique: yeast competitive growth sequencing
Form: peptide
Organism: Saccharomyces cerevisiae
Strain: cyclin B2-Cln2 fusion
Tested at: concentration not given
Setting: peptide tiling library
Reading: direction not given
Quantity: binding enrichment score
KRCATPVIIDEILPSK: -0.258
EAAPPTQEAQGETEPT: -0.335
ARKRLELGNLGNPQ: -0.222
VLPGGVPSPGASLTSM: -0.0997
TRRRLFVENDSP: -0.367
DTERAHSTLDEDLERW: 0.664
SGYLTDENEVGFRG: 0.825
SAVPLILPQAPSGPSY: 0.0537
DVSERGYVILPNDYFE: 0.0915
QNPCGSKACRRLFGPV: -0.0578
EPKTLFLGAGDFQF: 0.221
KPITLDTTDFQESFVT: 1.19
GLPDFVFQQQPVESEA: -0.313
IQKKLRFEDTLEFVGF: 0.972
PLRKAKRARLCSSSSS: 0.877
LENIEPLQVSFAVLSS: -0.245

Series 3
Target: Interferon regulatory factor 7, full length, phosphomimetic (IRF7, Homo sapiens, UniProt Q92985, residues 1-503, S471D/S472D/S475D/S476D/S477D/S483D/S484D/S487D)
Technique: protein-binding microarray
Form: double-stranded DNA, one strand shown
Matrix: in vitro
Tested at: 2200 nM top
Setting: 60-bp whole probe
Added: salmon DNA 0.4 mg/ml
Relative to: random background probes
Reading: higher = stronger binding
Quantity: fitted relative affinity
Shared flanks, not repeated: GCCTAGCAC … GTCTTGATTCGCTTGACGCTGCTG
Residues (chain): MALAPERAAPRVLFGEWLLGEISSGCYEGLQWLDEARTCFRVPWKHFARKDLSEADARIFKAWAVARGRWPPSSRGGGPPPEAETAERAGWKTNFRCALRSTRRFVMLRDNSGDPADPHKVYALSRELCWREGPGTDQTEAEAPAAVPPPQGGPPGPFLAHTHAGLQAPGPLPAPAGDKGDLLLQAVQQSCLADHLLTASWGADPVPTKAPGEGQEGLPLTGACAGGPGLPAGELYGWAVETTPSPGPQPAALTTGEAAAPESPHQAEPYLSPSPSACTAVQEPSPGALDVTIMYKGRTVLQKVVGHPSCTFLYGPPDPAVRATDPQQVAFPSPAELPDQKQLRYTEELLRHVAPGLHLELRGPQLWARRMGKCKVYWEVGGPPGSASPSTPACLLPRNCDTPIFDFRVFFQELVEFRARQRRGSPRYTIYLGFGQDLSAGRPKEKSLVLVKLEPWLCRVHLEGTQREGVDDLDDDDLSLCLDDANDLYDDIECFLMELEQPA
GACGGAGTGGACTATCGGGACGTGCTA: -0.585 z-score
GTAGGCTTCTATGTAGTTGAGTGCTAG: 0.0337 z-score
GACGTACTGGGGACTGGGGACGTGCTA: -0.319 z-score
TTAGGTTTCCATTTCCTTTAGTGCTAG: 5.21 z-score
GACGGTATCCGACTGCTGACGTGCTAG: 0.0561 z-score
GGCGGTTTCGGGACTGGGGACGTGCTA: 3.02 z-score
TAAGATATCAGTCTCGATTAGTGCTAG: 0.221 z-score
TTACATTTCGGGACTGGATTAGTGCTA: 1.94 z-score
TATCCTATCAGTTTAATATCGTGCTAG: 1.21 z-score
TTTTCATTATTGTCTCCCCCAGTGCTA: 2.03 z-score
GACGGTTTCGGTATCGCGACGTGCTAG: 7.61 z-score
TCACATGTTTTTTTCTAACTGTGCTAG: 1.53 z-score
TGCATTTTTTTTTTCTACTTGTGCTAG: 2.73 z-score
GACGGTTTCGACACTGGGGAGGTGCTA: 2.55 z-score
TGTGCTTTCCTGATGGTCCTGTGCTAG: 2.11 z-score
TTCTCTATTGCTTTCTCTTTGTGCTAG: 5.12 z-score
GACGATTTCCGTCTCGAGACGTGCTAG: 1.77 z-score
TCAGCATTCCCTTTCTCACTGTGCTAG: 2.44 z-score
TCATTTTCATTTTTTTTACTGTGCTAG: 5.07 z-score
TAAGGTTTCGGTTCCGGTTAGTGCTAG: 11.1 z-score
TCAAATTTCCACTTTGAACTGTGCTAG: 1.9 z-score
TTAGATATCGGGTATCGATTCGTGCTA: 0.698 z-score
TCATTTTGGTTTTCTCTAACTGTGCTA: 3.08 z-score
TTAGGTATCGGGTTTCGTTTAGTGCTA: 3.31 z-score
GACGGGCTCCTTCTCCTGACGTGCTAG: -0.202 z-score

Series 4
Target: Sal-like protein 4, full length isoform A (SALL4, Homo sapiens, UniProt Q9UJQ4, residues 1-1053)
Chain of UniProt Q9UJQ4 (whole entry, looked up): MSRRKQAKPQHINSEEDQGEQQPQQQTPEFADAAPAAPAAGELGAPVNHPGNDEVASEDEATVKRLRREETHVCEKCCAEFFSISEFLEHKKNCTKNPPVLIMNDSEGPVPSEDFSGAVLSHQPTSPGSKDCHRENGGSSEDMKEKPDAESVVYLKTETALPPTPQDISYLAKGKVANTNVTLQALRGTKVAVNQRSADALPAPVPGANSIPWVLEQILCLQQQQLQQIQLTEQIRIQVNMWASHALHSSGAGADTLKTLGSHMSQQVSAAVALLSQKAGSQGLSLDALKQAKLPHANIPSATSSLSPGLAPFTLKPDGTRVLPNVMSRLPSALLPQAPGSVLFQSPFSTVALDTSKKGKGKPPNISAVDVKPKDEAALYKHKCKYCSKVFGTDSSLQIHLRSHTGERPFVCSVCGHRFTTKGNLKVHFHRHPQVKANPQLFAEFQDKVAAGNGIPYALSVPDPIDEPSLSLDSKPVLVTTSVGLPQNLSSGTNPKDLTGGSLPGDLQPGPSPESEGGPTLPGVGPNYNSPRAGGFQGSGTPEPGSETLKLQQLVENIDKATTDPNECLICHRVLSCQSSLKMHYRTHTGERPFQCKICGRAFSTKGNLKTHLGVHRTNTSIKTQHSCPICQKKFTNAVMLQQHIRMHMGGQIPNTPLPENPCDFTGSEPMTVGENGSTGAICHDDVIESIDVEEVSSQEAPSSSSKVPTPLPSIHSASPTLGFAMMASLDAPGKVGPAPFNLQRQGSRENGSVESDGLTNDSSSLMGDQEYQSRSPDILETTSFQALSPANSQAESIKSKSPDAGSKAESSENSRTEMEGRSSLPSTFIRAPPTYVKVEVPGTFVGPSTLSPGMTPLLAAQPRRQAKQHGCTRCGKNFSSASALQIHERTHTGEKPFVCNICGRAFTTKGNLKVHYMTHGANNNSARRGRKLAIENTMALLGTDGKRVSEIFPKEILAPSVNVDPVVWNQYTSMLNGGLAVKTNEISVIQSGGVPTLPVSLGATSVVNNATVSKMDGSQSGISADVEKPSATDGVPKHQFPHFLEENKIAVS
Technique: universal PBM
Form: double-stranded DNA, one strand shown
Matrix: in vitro
Tested at: 600 nM
Setting: 8-mer, flanks averaged, mean of replicates
Reading: higher = stronger binding
Quantity: E-score
GAATCTCC: -0.133
AATCGCTC: -0.00324
ATCCGTTG: -0.0387
CATTTACA: 0.177
CGCATCGC: -0.2
CACTGCGG: -0.2
CTCAATCA: 0.0733
ACGAAGCA: 0.0462
CCGTGTCA: -0.261
ACTGATCC: -0.0624
ACGATCAG: -0.00598
CACATGCA: -0.0452
GTATTGAA: 0.263
AGATACGG: 0.0118
ATTGATTA: 0.311
GAGGGGAA: -0.147
GAGTTCCA: -0.105
CGTACCGA: -0.183

Series 5
Target: Histone acetyltransferase KAT6A, winged helix 1, GST fusion (KAT6A, Homo sapiens, UniProt Q92794, residues 1-85)
Technique: protein binding microarray
Form: double-stranded DNA, one strand shown
Matrix: in vitro
Tested at: not given
Setting: 8-mer, flanks averaged, mean of 2 arrays, mostly near background
Relative to: not given
Reading: higher = stronger binding
Quantity: E-score
Residues (chain): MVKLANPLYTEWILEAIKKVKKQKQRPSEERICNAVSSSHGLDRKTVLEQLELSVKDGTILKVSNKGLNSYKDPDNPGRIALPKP
CGCTGACC: 0.209
TGTAGACA: -0.198
CACTTGGA: -0.24
GCCTATAC: -0.0233
ATGGCTAA: -0.17
CATACAAA: -0.0622
CCCGCTCC: 0.297
ACTATCCG: 0.152
CCCACATA: -0.181
GAGAGGCC: -0.12
AGGCACTG: -0.211
CGTTAGCA: 0.0901
GTACGTAC: 0.0727
TACTAGGA: -0.196
ATTAGAAT: -0.291
AGTCACTC: -0.0777
CGAACGAA: -0.08
GGCACTGA: 0.0445
CGGAGGAA: 0.0128
ATTGTTTA: -0.25
ATTCTGGA: -0.201
AACCCGCT: 0.333

For quick reference, copied from above (series 4):
ACGAAGCA: 0.0462
GTATTGAA: 0.263
ACTGATCC: -0.0624
CGTACCGA: -0.183
CACATGCA: -0.0452
GAGGGGAA: -0.147
CTCAATCA: 0.0733
CGCATCGC: -0.2
ATCCGTTG: -0.0387
ACGATCAG: -0.00598
AGATACGG: 0.0118
CATTTACA: 0.177
GAGTTCCA: -0.105
GAATCTCC: -0.133
